Experimental data gathered from unrelated publications.
Every numbered part comes from another study and shows a few of its results, in no order. Changes are numbered by the printed parent chain.

Block 1 — target: CCNA2, cyclin fold, Cln2 fusion (human); technique: yeast growth competition, sequencing; medium: yeast; setting: strong parent motif; relative to: not given; reading: higher = stronger binding; quantity: normalised enrichment score
Starting sequence: CDC25A docking peptide (human); PPHRRRLLFACSP
PPHMRRLLFACSP [R4M]: 0.881
PPHRRRLLPACSP [F9P]: 0.411
APHRRRLLFACSP [P1A]: 2.15
PPHRRRHLFACSP [L7H]: 0.464
PPHRRRLLFLCSP [A10L]: 2.37
PPCRRRLLFACSP [H3C]: 6.2
PPHRRRYLFACSP [L7Y]: 1.38

Block 2 — technique: RNA Bind-n-Seq; form: RNA; medium: in vitro; tested at: 200 nM; setting: whole 134-nt RNA, ends assumed; added: 150 mM KCl; relative to: input library; reading: higher = stronger binding; quantity: log2 enrichment
Target: Ras GTPase-activating protein-binding protein 1, full length (G3BP1, Homo sapiens, UniProt Q13283)
Chain of UniProt Q13283 (whole entry, looked up): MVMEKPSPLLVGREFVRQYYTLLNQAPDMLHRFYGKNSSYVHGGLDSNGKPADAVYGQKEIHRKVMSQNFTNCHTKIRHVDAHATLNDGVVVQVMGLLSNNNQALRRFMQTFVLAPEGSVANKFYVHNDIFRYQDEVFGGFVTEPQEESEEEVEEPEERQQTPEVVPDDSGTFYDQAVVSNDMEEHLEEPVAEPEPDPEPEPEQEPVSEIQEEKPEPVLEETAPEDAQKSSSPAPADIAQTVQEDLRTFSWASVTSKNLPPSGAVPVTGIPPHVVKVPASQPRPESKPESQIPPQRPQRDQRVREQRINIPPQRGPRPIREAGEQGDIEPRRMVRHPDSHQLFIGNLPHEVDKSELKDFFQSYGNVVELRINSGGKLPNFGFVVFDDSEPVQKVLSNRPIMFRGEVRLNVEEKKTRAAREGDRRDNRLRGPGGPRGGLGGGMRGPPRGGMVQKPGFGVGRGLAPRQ
All sequences stand within: GGGAGUUCUACAGUCCGACGAUC … UGGAAUUCUCGGGUGUCAAGG
UCAAGUCCUGUGCUACACAUCGUAUGUACCGAAUCGGGGCCGGCCGGGCCGGGGAAAGUAUUAUGUUACGCCGUUCGGAUCUGCACUUCC: -0.272
GUCCUGUGCUACACAUCGUAUGUACCGAAUCGGGGCCCCGGGGCCCCGGGCCCCGGGGAAAGUAUUAUGUUACGCCGUUCGGAUCUGCAC: 1.17
CAAGUCCUGUGCUACACAUCGUAUGUACCGAAUCGGGCCCGGCCCGGGCCCGGGGAAAGUAUUAUGUUACGCCGUUCGGAUCUGCACUUC: -1.27
UAACUUUAGAGGAGGAUCUGAUGGAUAUGGCAGUGGACGUGGAUUUGGGGAUGGCUAUAAUGGGUAUGGAGGAGGACCUGGAGGUGACAA: 0.206
UGGGAGGUGGAUUUUGCUUAUUUUUUUAGCUCAUUUCCAGGGGUGGGAAUUUUUUUUUAAUAUGUGUCAUGAAUAAAGUUGUUUUUGAAA: 0.198
AAGUCCUGUGCUACACAUCGUAUGUACCGAAUCGGGUUUUUGGGAAAGGGAAAGGGAAAGUAUUAUGUUACGCCGUUCGGAUCUGCACUU: 0.0252
AAGUCCUGUGCUACACAUCGUAUGUACCGAAUCGGUUUUUUUGGAAAAAGGUUUGGAAAGUAUUAUGUUACGCCGUUCGGAUCUGCACUU: -1.56
AAGUCCUGUGCUACACAUCGUAUGUACCGAAUCGGGCCCGGGGCCCGGGGCCCGGGAAAGUAUUAUGUUACGCCGUUCGGAUCUGCACUU: -1.11

Block 3 — technique: protein binding microarray; form: double-stranded DNA, one strand shown; medium: in vitro; tested at: not given; relative to: not given; reading: higher = stronger binding; quantity: E-score
Target: Histone acetyltransferase KAT6A, winged helix 1, GST fusion (KAT6A, Homo sapiens, UniProt Q92794, residues 1-85)
Setting: 8-mer, flanks averaged, mean of 2 arrays, mostly near background
Construct (chain): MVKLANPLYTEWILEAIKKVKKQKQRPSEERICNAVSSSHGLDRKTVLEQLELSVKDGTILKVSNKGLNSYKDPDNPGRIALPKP
GGTTGTTA: 0.0589
ACGAAGTC: -0.203
CTTAAGTA: -0.0589
ATGTCGCA: 0.0612
CTAAGAGC: -0.0018
GAGATAAC: -0.109
AGGTTAGC: -0.0113
CCCAACAC: -0.104

Mixed results
PhoQ, residues 284 288 289 292 302 303 SLSVQF — fold induction (PhoP, residues 12 14 15 18 19 AQALL (Escherichia coli, UniProt P23836); Sort-seq, measured: YFP reporter; E. coli; PhoQ-PhoP variant library, added: 10 µM Mg2+; relative to: high Mg2+ state, higher = stronger signaling): 7.35

Repeated from above (mixed results):
PhoQ, residues 284 288 289 292 302 303 SLSVQF — fold induction (PhoP, residues 12 14 15 18 19 AQALL (Escherichia coli, UniProt P23836); Sort-seq, measured: YFP reporter; E. coli; PhoQ-PhoP variant library, added: 10 µM Mg2+; relative to: high Mg2+ state, higher = stronger signaling): 7.35
